Literature values that unrelated publications cite.
Each numbered part shows a few of the values that one paper quotes. ± gives the spread as reported.
UniProt P41595, sequence (whole entry, looked up): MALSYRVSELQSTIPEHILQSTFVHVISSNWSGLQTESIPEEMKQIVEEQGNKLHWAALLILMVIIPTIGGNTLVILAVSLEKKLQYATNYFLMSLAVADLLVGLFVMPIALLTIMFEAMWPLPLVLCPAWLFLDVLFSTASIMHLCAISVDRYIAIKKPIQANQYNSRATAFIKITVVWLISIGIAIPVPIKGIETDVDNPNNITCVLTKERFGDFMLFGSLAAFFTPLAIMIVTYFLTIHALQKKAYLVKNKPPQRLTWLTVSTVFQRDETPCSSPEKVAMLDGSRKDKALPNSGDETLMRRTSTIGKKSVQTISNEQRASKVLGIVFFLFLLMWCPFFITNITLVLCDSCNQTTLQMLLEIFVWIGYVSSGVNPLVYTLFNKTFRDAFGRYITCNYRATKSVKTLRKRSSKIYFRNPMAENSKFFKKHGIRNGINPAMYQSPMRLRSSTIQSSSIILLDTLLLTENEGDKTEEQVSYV

Set 1
Target: Mamu-B*01 macaque
Read-out: peptide-MHC binding
Molecule type: peptide
Endpoint: IC50
IDDVTIKI: 0.0334 µM
ADDIVEKL: 0.0718 µM
VDLIEHLL: 0.00629 µM

Single results of other studies
Nc1ncnc2c1ncn2C1OC(COP(=O)(O)OP(=O)(O)C(F)(F)P(=O)(O)O)C(O)C1O (centres unmarked)  pKa4 (phosphate ionisation; aqueous solution): 7.1
CCCCC(=O)n1cc2c3c(cccc31)C1=C[C@@H](C(=O)N(CC)CC)CN(C)[C@@H]1C2  ED50 (head-twitch response, agonist; C57BL/6J mice male; literature value): 373 nmol/kg
Nc1ncnc2c1ncn2[C@@H]1O[C@H](COP(=O)(O)OP(=O)(O)CP(=O)(O)O)[C@@H](O)[C@H]1O  pKa4 (phosphate ionisation; aqueous solution): 8.4
CCCC(=O)n1cc2c3c(cccc31)C1=C[C@@H](C(=O)N(CC)CC)CN(C)[C@@H]1C2  Ki (HTR2B (Homo sapiens, UniProt P41595)): 0.0035 µM
CCCCCC(=O)N[C@H]1[C@H]([C@@H](O)[C@@H](O)CNC(C)=O)OC(C(=O)O)=C[C@@H]1O  Ki (Sialidase-1 (NEU1, Homo sapiens, UniProt Q99519); inhibitor): 0.053 ± 0.005 µM

Excerpt of the above (single results of other studies):
CCCCC(=O)n1cc2c3c(cccc31)C1=C[C@@H](C(=O)N(CC)CC)CN(C)[C@@H]1C2  ED50 (head-twitch response, agonist; C57BL/6J mice male; literature value): 373 nmol/kg
